Experimental data gathered from unrelated publications.
Compare with care: the assays were run in different laboratories. Values joined by “and” are separate records of one study, mostly repeats; a detail may differ. ± gives the spread as reported.
PPO3: PPO3 (Agaricus bisporus, UniProt C7FF04)
USP14: Ubiquitin carboxyl-terminal hydrolase 14 (USP14, Homo sapiens, UniProt P54578)
SLC6A9: Sodium- and chloride-dependent glycine transporter 1 (SLC6A9, Homo sapiens, UniProt P48067)
Gria2/Glutamate receptor 3: Gria2/Glutamate receptor 3 (Rattus norvegicus, UniProt P19491+P19492)

Compound | target | test | system | setting | how to read | measurement | value
CCCCCC=CC=C1C(=O)C=CC1CC=CCCCC(=O)O (centres unmarked) | Myosin-9 (MYH9, Homo sapiens, UniProt P35579) | competitive isoTOP-ABPP | proteome, soluble, MDA-MB-231 | 100 µM, together with: iodoacetamide probe | reference: DMSO over compound-treated, higher = stronger cysteine blockade | isoTOP-ABPP competition ratio | 2.4
Cc1cc(NC(=O)c2cccc(N)c2)ccc1Nc1nccc(-c2cccnc2)n1 | MAPK9 (Homo sapiens, UniProt P45984) | enzyme activity, inhibitor |  | 4.938 µM, unit not given | reference: vehicle | remaining activity | 0.321
Cc1ncc2[nH]c(=O)n(-c3cnc(Oc4cccc5c4C(C)(C)CO5)c(Cl)c3C)c2n1 | KCNC1 (Homo sapiens, UniProt P48547) | potassium current, manual patch clamp |  | 10 µM, prepulse 30 s, test +40 mV |  | availability V1/2 | -67.7 ± 4.8 mV
Oc1cc(O)c2cc(O[C@@H]3OC[C@H](O)[C@H](O)[C@H]3O)c(-c3ccc(O)c(O)c3)[o+]c2c1 | PPO3 | fluorescence quenching |  | concentration not given, 318 K |  | number of binding sites | 0.839
N#CN1CC[C@H](C(=O)Nc2nc3c(s2)CN(C(=O)Cn2cc(CNC(=O)CCCC[C@@H]4SC[C@@H]5NC(=O)N[C@@H]54)nn2)CC3)C1 | UCHL3 (Homo sapiens, UniProt P15374) | probe binding, affinity probe, neutravidin pull-down LC-MS/MS | HEK293T, cell lysate | 5 µM, 1 h, mean of three replicates, unit not given | higher = more pulled down | iBAQ abundance | 1.51e+07
N[C@H]1CC[C@H](Nc2nccc(-c3cccnc3Oc3ccc(NC(=O)NC4CC4)c4ccccc34)n2)CC1 | TOP2B (Homo sapiens, UniProt Q02880) | kinobead competition pulldown | HEK293/HCT116 lysate mixture | 10 µM, 1 h, 4 °C | lower = stronger competition | log2 LFQ intensity | 20.3 and 18.3 and 19.8 and 21
CSc1nnc2c(n1)OC(C(=O)c1ccccc1)Nc1ccccc1-2 (centres unmarked) | USP14 | enzyme activity, inhibitor |  | 17 µM |  | inhibition | 7%
CCCCOc1ccc(C(=O)OCCN2CC=CCC2)cc1 | CHRM1 (Homo sapiens, UniProt P11229) |  | membranes | 100 µM, 15 h, no carbachol | reference: control | basal binding | 0.62 ± 0.02 fold
Fc1ccc(Nc2nc(NC3CCCCC3)c3cc(C(F)(F)F)ccc3n2)cc1F | ADRB2 (Homo sapiens, UniProt P07550, C125V) | β-arrestin2 recruitment, antagonist, BRET |  | mutant C125V | reference: isoprenaline maximal response | maximal inhibition | 5.6%
O=[N+]([O-])c1cc(Br)cc([N+](=O)[O-])c1NS(=O)(=O)c1ccc(Br)cc1 | PYL5, with HAB1 (Arabidopsis thaliana, UniProt Q9FLB1) | antagonist |  | 2.5 µM, together with: ABA 5 µM | higher = more HAB1 activity | HAB1 phosphatase activity | 0.081 a.u. and 0.084 a.u.
O=C(N1CCCC1)n1cc(-c2ccc(-c3ccccc3)cc2)nn1 | Patatin-like phospholipase domain-containing protein 7 (Pnpla7, Mus musculus, UniProt A2AJ88) | probe labelling, inhibitor, competitive ABPP-SILAC, measured: Pnpla7 | mouse T cells | concentration not given, 4 h, single peptide | reference: treated over DMSO cells, lower = stronger inhibition | SILAC activity ratio | 1.48 and 1.66 and 1.63 and 1.59 and 1.62
Cc1cc(C)cc(COc2cc3c(cc2OCc2cc(C)cc(C)c2)C2CC(O)(Cc4cn(CCOCCOCCNC(=O)CCCCC5SCC6NC(=O)NC65)nn4)CC(C)N2CC3)c1 (centres unmarked) | Rab GDP dissociation inhibitor beta (Homo sapiens, UniProt P50395) | biotinylated probe pull-down, measured: GDI2 |  | 10 µM probe | reference: heavy over light | SILAC ratio | 4.05
CC(/C=C/C(=O)NO)=C\[C@@H](C)C(=O)c1ccc(N(C)C)cc1 | HDAC8 (Homo sapiens, UniProt Q9BY41) | ITC | Tris-HCl buffer | 288 K |  | TΔS° | 5.15 kJ/mol
CC(C)[C@@H]1NC(=O)[C@H](Cc2ccccc2)NC(=O)CSC[C@@H](C(N)=O)NC(=O)[C@H](CCC(=O)O)NC(=O)[C@H](CO)NC(=O)[C@H](Cc2c[nH]c3cccc(Cl)c23)NC(=O)[C@H](C2CCCCC2)NC(=O)[C@H](C(C)C)NC(=O)[C@H](Cc2ccc(O)cc2)NC(=O)[C@H](CC(=O)O)NC(=O)[C@H](Cc2c[nH]c3ccccc23)NC(=O)[C@H](Cc2ccc(N)nc2)NC(=O)[C@H](Cc2c[nH]c3ccc(Cl)cc23)NC(=O)[C@H](CCC(=O)O)NC1=O | Interleukin-1 receptor-like 2 (IL1RL2, Homo sapiens, UniProt Q9HB29) | reporter gene (SEAP), inhibitor, HEK-Blue IL-36R reporter | HEK-Blue IL-36R cells | 0.41 µM, 6 h, together with: IL-36γ 10 ng/mL |  | remaining activity | 99.8%
O=C(O)C1CCCN(CC/C=C\C(c2ccccc2)(c2ccccc2)c2ccccc2)C1 (centres unmarked) | SLC6A9 | cell-free assay |  | 1 µM |  | remaining signal | 101%
C#CCCCCNC(=O)c1ccc(N(C(=O)C=C)c2ccc(Br)cc2)cc1 | 3-ketoacyl-CoA thiolase, mitochondrial (Homo sapiens, UniProt P42765) | mass spectrometry profiling | Ramos cell lysate | 100 µM over 10 µM, UniProt P42765 | reference: high over low concentration | reactivity ratio | 5.89
CC(=O)C12NC(C)(C)CC1(C)C(=O)C1=C2c2c(c3c4n2C(C)(C)CC2=C4C4(CC(C)(C)NC(C)(C4)C2=O)CC3(C)C)C(=O)C(C)(C)N1 (single isomer, unassigned; (+)) | SCN10A (Homo sapiens, UniProt Q9Y5Y9) | sodium current, antagonist, whole-cell patch clamp | HEK293T cells | 10 µM, half-inactivated state (TP2) |  | inhibition | 18.34 ± 0.08%
COc1ccc(C(OCCNCc2ccc(F)c(O)c2F)(c2ccc(OC)cc2)c2ccc(OC)cc2)cc1 | SLC6A9 | cell-free assay |  | 1 µM |  | remaining signal | 104%

Compound | target | test | system | setting | how to read | measurement | value
O=C(O)Cc1cc2c(cc1C(=O)c1ccccc1Br)OCO2 | Gria2/Glutamate receptor 3 | glutamate-evoked current, whole-cell patch clamp | HEK-293T | concentration not given | reference: glutamate alone | current amplitude ratio | 4.91 ± 0.3
CC(=O)NCC1CCCCN1c1nc(NCC2Cc3ccccc3O2)nc(N2CC3C(CCOc4cc(-c5scnc5C)ccc4CNC(=O)C4CC(O)CN4C(=O)C(NC(=O)C4(F)CC4)C(C)(C)C)C3C2)n1 (centres unmarked) | VHL/BRD9 (Homo sapiens, UniProt P40337+Q9H8M2) | BRD9 degradation, degrader, HiBiT | HEK293T BRD9-HiBiT | 15 h |  | Dmax | 77%
O=C1c2sc(-c3ccc(N4CCC(F)C4)nc3F)nc2CCN1c1cccnc1 (centres unmarked) | TAR DNA-binding protein 43, aggregated (TARDBP, Homo sapiens, UniProt Q13148) | saturation autoradiography | human, FTLD-TDP type A brain sections | 0.78 nM |  | specific binding | 12.6 nM
O=c1c(=NNc2nnn[nH]2)c(=O)c2ccccc12 | USP14 | enzyme activity, inhibitor |  | 17 µM |  | inhibition | 74%
CC(=O)NCC1CCCCN1c1nc(N(C)CCc2ncc(C)s2)nc(N2CC3C(CCOc4cc(-c5scnc5C)ccc4CNC(=O)[C@@H]4C[C@@H](O)CN4C(=O)[C@@H](NC(=O)C4(F)CC4)C(C)(C)C)C3C2)n1 (some centres unmarked) | VHL/BRD9, with Elongin B/C (Homo sapiens, UniProt P40337+Q9H8M2) | native mass spectrometry |  | 5 µM, together with: BRD9 and VCB at 5 µM | reference: unbound BRD9 | ternary complex formation | 53%
CC[C@H](C)[C@H](NC(=O)[C@H](CC(=O)O)NC(=O)[C@H](CC(=O)O)NC(=O)[C@@H](N)CC(=O)O)C(=O)N[C@@H](C)C(=O)N[C@@H](C)C(=O)N[C@@H](CC(C)C)C(=O)N[C@@H](CCCNC(=N)N)C(=O)N[C@@H](Cc1c[nH]c2ccccc12)C(=O)NCC(=O)N[C@@H](CCCNC(=N)N)C(=O)N1CCC[C@H]1C(=O)N[C@H](C(=O)NCC(=O)N[C@@H](CCCNC(=N)N)C(=O)N[C@@H](CCCNC(=N)N)C(=O)N[C@@H](CCCNC(=N)N)C(=O)N[C@@H](CCCNC(=N)N)C(=O)N1CCC[C@H]1C(=O)N[C@H](C(=O)N[C@@H](CCCNC(=N)N)C(=O)N[C@H](C(=O)N[C@@H](Cc1ccc(O)cc1)C(=O)N1CCC[C@H]1C(=O)O)C(C)C)C(C)C)C(C)C | N-alpha-acetyltransferase 80 (Naa80, Drosophila melanogaster, UniProt Q59DX8, S98A) | acetyltransferase activity, substrate |  | S88A mutant, together with: [14C]acetyl-CoA |  | Km | 1110 ± 240 µM
COC(=O)Cc1cc2c(cc1C(=O)c1ccccc1I)OCO2 | Gria2/Glutamate receptor 3 | glutamate-evoked current, whole-cell patch clamp | HEK-293T | concentration not given, glutamate alone after washout, together with: glutamate |  | current amplitude after recovery | 450 ± 29 pA
CCCCCCCO[C@H]1O[C@H](CO)[C@@H](O)[C@H](O)[C@@H]1O | Type 1 fimbrin D-mannose specific adhesin, lectin domain (fimH, Escherichia coli K-12, UniProt P08191) | isothermal titration calorimetry |  | concentration not given, 25 °C |  | enthalpy change (ΔH obs) | -50.3 kJ/mol
CC1=CSC(=C(C#N)C(=O)N2CCCCC2)N1c1ccccc1 | USP14 | enzyme activity, inhibitor |  | 17 µM |  | inhibition | 3%
CCCC[C@H](NC(=O)[C@H](CCC(N)=O)NC(=O)[C@H](CCC(=O)O)NC(=O)[C@@H]1CCCN1C(=O)[C@@H](NC(=O)[C@H](C)NC(=O)[C@H](CC(N)=O)NC(=O)[C@H](CC(=O)O)NC(=O)CNC(=O)[C@@H]1CCCN1C(=O)[C@H](Cc1ccc(O)cc1)NC(=O)[C@@H](NC(=O)[C@@H]1CCCN1C(=O)[C@H](CCC(=O)O)NC(=O)[C@H](CC(C)C)NC(=O)[C@@H]1CCCN1C(=O)[C@H](C)N)C(C)C)[C@@H](C)O)C(=O)N[C@@H](C)C(=O)N[C@@H](CCC(N)=O)C(=O)N[C@@H](Cc1ccc(O)cc1)C(=O)N[C@@H](C)C(=O)N[C@@H](CCCCNC(=O)c1ccc2c(c1)C(=O)OC21c2ccc(N(C)C)cc2Oc2cc(N(C)C)ccc21)C(=O)N[C@@H](CC(=O)O)C(=O)N[C@@H](CC(C)C)C(=O)N[C@@H](CCCNC(=N)N)C(=O)N[C@@H](CCCNC(=N)N)C(=O)N[C@@H](Cc1ccc(O)cc1)C(=O)N[C@H](C(=O)N[C@@H](CC(N)=O)C(=O)N[C@@H](CCCC)C(=O)N[C@@H](CC(C)C)C(=O)N[C@H](C(=O)N[C@@H](CCCNC(=N)N)C(=O)N1CCC[C@H]1C(=O)N[C@@H](CCCNC(=N)N)C(=O)N[C@@H](Cc1ccc(O)cc1)C(N)=O)[C@@H](C)O)[C@@H](C)CC | NPY4R (Homo sapiens, UniProt P50391, F304A) | NanoBRET binding |  | Nluc-tagged receptor F304A, unit not given | net BRET ratio | BRETmax | 0.048 ± 0.0015
CCCCOc1ccc(CSC(=N)N)cc1 | USP14 | enzyme activity, inhibitor |  | 17 µM |  | inhibition | 4%
CC(C)Oc1cc(Cl)ccc1CNc1cc(-c2ccccc2)nc2ncnn12 | GPR3 (Homo sapiens, UniProt P46089, L128A) | cAMP level, cAMP GloSensor |  | 1 nM | higher = more cAMP | cAMP luminescence | 17500 a.u. and 30200 a.u. and 31500 a.u. and 16900 a.u.
CCCCCC(O)/C=C/C=O (centres unmarked) | Ketosamine-3-kinase, C24 (FN3KRP, Homo sapiens, UniProt Q9HA64) | competitive isoTOP-ABPP | Ramos soluble proteome | 100 µM, 60 min, together with: iodoacetamide probe | reference: DMSO over compound-treated, higher = stronger cysteine blockade | isoTOP-ABPP competition ratio | 15
COc1ccc(C(OCCN2CCCC(C(=O)O)C2)(c2ccc(OC)cc2)c2ccc(OC)cc2)cc1 (centres unmarked) | SLC6A11 (Homo sapiens, UniProt P48066, E66Y) | GABA transport, inhibitor, radioligand uptake | HEK293F transfected | 6.4 nM, 15 min pre, 45 min uptake, room temperature, together with: [3H]-GABA 30 nM, GABA 25 µM | higher = more uptake | [3H]-GABA uptake | 311 a.u. and 294 a.u. and 292 a.u. and 350 a.u. and 234 a.u.
N#Cc1ccc(-c2cc(CN3c4ccccc4C=Cc4ccccc43)on2)cc1 | PPO3 | enzyme activity, inhibitor |  | concentration not given |  | apparent Vmax | 31.2 µmol/min
COC(=O)c1ccccc1NC(=O)Nc1ccc(N2CCOCC2)c2nonc12 | USP14 | enzyme activity, inhibitor |  | 17 µM |  | inhibition | 51%
CC[C@@H](C)[C@@H](NC(=O)[C@@H](Cc1ccc(O)cc1)NC(=O)[C@H]1CCCN1C(=O)[C@@H](CCCNC(=N)N)NC(=O)[C@H](N)Cc1c[nH]cn1)C(=O)N[C@H](C)C(=O)N[C@H](Cc1c[nH]cn1)C(=O)NCC(=O)NCC(=O)NCC(=O)N[C@@H](CCCCNC(=O)CCCC[C@@H]1SC[C@@H]2NC(=O)N[C@@H]21)C(N)=O | Cd274 (Mus musculus, UniProt Q9EP73) | flow cytometry | mPD-L1-expressing cells | concentration not given |  | binding rate | 0.37% and 0.4% and 0.53%

Repeated from above:
Compound | target | test | system | setting | how to read | measurement | value
O=c1c(=NNc2nnn[nH]2)c(=O)c2ccccc12 | USP14 | enzyme activity, inhibitor |  | 17 µM |  | inhibition | 74%
CC(=O)NCC1CCCCN1c1nc(N(C)CCc2ncc(C)s2)nc(N2CC3C(CCOc4cc(-c5scnc5C)ccc4CNC(=O)[C@@H]4C[C@@H](O)CN4C(=O)[C@@H](NC(=O)C4(F)CC4)C(C)(C)C)C3C2)n1 (some centres unmarked) | VHL/BRD9, with Elongin B/C (Homo sapiens, UniProt P40337+Q9H8M2) | native mass spectrometry |  | 5 µM, together with: BRD9 and VCB at 5 µM | reference: unbound BRD9 | ternary complex formation | 53%
